Assay results pooled from the literature.
Numbers after ± are the reported error.
sdiA: Regulatory protein SdiA (sdiA, Escherichia coli, UniProt P07026)
Chain of UniProt P07026 (whole entry, looked up): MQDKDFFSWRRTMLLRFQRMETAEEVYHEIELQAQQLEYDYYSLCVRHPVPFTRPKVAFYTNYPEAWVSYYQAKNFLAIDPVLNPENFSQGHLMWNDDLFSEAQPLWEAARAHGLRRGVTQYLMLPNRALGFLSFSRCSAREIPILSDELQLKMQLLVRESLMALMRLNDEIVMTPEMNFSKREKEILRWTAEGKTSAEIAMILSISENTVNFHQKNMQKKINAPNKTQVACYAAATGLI
Histidine kinase AgrC: Histidine kinase AgrC (Listeria monocytogenes, UniProt A8E0G3)
Chain of UniProt P35372 (whole entry, looked up): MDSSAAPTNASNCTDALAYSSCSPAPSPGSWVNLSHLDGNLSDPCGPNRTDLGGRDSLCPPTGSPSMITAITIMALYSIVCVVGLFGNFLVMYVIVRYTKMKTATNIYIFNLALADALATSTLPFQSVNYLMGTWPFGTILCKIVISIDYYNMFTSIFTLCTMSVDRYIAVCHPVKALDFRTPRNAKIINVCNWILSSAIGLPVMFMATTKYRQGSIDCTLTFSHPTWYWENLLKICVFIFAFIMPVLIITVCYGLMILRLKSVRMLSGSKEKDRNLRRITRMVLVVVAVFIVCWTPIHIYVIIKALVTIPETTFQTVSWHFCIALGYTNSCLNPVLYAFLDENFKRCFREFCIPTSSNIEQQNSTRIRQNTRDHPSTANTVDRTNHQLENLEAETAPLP
Chain of UniProt Q03431 (whole entry, looked up): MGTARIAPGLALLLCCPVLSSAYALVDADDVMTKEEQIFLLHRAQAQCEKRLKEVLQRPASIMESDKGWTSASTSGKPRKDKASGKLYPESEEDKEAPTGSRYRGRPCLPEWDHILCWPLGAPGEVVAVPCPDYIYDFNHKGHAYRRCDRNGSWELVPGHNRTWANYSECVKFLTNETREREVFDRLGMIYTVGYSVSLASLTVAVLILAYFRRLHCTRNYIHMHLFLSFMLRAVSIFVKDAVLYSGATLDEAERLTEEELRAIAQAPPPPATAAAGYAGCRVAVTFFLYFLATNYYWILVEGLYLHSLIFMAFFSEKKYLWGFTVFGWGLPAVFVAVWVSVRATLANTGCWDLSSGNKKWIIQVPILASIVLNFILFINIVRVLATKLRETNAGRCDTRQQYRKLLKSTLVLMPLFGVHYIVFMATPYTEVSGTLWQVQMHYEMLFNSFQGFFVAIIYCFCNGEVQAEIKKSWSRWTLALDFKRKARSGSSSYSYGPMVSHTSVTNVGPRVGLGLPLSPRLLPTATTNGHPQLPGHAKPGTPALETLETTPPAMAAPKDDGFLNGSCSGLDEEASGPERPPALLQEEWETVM
Chain of UniProt Q9UKP6 (whole entry, unmodified, looked up): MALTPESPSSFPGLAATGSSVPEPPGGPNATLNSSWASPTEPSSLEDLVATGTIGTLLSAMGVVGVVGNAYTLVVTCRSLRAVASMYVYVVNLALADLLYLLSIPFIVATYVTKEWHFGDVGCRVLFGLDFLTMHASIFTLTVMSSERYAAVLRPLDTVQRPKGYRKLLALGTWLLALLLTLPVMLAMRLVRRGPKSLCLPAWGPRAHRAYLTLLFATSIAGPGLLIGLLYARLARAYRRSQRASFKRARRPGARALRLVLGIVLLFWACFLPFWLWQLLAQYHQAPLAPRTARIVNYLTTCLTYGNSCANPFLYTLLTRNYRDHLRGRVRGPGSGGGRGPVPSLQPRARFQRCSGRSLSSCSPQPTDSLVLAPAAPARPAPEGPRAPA
Chain of UniProt P41143 (whole entry, unmodified, looked up): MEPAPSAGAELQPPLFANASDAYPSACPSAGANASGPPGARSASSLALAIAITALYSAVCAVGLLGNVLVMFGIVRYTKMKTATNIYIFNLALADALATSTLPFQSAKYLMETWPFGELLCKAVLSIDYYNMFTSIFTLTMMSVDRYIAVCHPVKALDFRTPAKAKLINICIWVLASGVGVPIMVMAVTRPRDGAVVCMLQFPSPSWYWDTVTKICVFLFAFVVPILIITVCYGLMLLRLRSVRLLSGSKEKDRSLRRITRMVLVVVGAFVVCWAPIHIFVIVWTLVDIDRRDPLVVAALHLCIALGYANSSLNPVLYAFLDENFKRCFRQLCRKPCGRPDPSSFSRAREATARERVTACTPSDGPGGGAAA
Chain of UniProt O55040 (whole entry, looked up): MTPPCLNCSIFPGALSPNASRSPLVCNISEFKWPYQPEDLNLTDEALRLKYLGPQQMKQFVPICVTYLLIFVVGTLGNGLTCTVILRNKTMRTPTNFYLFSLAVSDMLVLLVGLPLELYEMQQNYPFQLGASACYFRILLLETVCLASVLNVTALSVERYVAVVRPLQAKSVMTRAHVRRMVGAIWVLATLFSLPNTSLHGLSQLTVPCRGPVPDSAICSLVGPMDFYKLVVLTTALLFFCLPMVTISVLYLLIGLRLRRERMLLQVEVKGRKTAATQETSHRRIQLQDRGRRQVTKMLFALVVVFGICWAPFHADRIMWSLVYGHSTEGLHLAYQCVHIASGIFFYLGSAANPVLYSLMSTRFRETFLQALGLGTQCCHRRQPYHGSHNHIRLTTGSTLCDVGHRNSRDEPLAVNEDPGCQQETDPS

SMILES	target	assay	test system	conditions	EC50 [nM]
CN(C)[C@H](CNC(=O)/C=C/c1cccc2ccccc12)Cc1ccc(O)cc1	Mu-type opioid receptor, with GoB (OPRM1, Homo sapiens, UniProt P35372)	receptor activation, agonist	–	–	7.3 ± 1.7
CC(C)[C@H](NC(=O)[C@@H]1CSSC(C)(C)[C@H](NC(=O)[C@@H](N)CC(=O)O)C(=O)N[C@@H](Cc2ccccc2)C(=O)N[C@@H](Cc2c[nH]c3ccccc23)C(=O)N[C@@H](CCCCN)C(=O)N[C@@H](Cc2ccc(O)cc2)C(=O)N1)C(=O)O	UTS2R (Homo sapiens, UniProt Q9UKP6, F274A)	IP1 accumulation, agonist, HTRF	HEK293T	1 h, 37 °C, F274A mutant, 6.51	39.8
CCCCCCCCCCCCCCCCCC(=O)NC[C@H]1CC[C@H](C(=O)N[C@@H](CCC(=O)NCCCOCCOCCOCCCNC(=O)COCC(=O)N[C@@H](Cc2ccc(O)cc2)C(=O)NC(C)(Cc2ccccc2)C(=O)N[C@@H](CC(C)C)C(=O)N[C@@H](CCCC)C(=O)N[C@@H](CCCNC(=N)N)C(=O)N2CCC[C@H]2C(=O)N[C@@H](CCCNC(=N)NC)C(=O)N[C@@H](CC(N)=O)C(N)=O)C(=O)O)CC1 (stereo partly drawn)	Neuromedin-U receptor 1 (Mus musculus, UniProt O55040)	β-arrestin recruitment, agonist	–	–	> 10000
O=C(Cc1ccccc1)N[C@H]1CCSC1=O	sdiA	–	–	–	5.33
Cc1cc(O)cc(C)c1C[C@H](N)C(=O)N[C@H](CCCNC(=N)N)C(=O)N[C@@H](Cc1ccccc1)C(=O)N(C)CC(=O)N(C)Cc1cc(C(F)(F)F)cc(C(F)(F)F)c1	OPRD1 (Homo sapiens, UniProt P41143, D210N)	agonist	–	–	1.91 ± 0.7
O=C(CCc1ccc(C(F)(F)F)cc1)N[C@H]1CCOC1=O	lasR (Pseudomonas aeruginosa, UniProt P25084)	reporter gene, agonist	ΔmexAB-oprM pump mutant	–	8600
CSCC[C@@H]1NC(=O)[C@H](Cc2ccc(O)cc2)NC(=O)[C@@H](NC(=O)[C@H](C)N)CSC(=O)[C@H](C(C)C)NC(=O)[C@H](Cc2ccccc2)NC1=O	Histidine kinase AgrC	–	–	–	518
N#Cc1cccc(CC(=O)N[C@H]2CCOC2=O)c1	sdiA	–	–	–	2.43
CSCC[C@@H]1NC(=O)[C@H](Cc2ccccc2)NC(=O)[C@H](CS)NC(=O)[C@H](C(C)C)NC(=O)[C@H](Cc2ccccc2)NC1=O	Histidine kinase AgrC	–	–	–	1820
CCCCCC(=O)N[C@H]1CCSC1=O	sdiA	–	–	–	1.1
CSCC[C@@H]1NC(=O)[C@H](Cc2ccccc2)NC(=O)[C@@H](NC(=O)[C@H](C)N)CSC(=O)[C@H](C(C)C)NC(=O)[C@@H](Cc2ccccc2)NC1=O	Histidine kinase AgrC	–	–	–	2180
CCCC[C@H](NC(=O)[C@H](CC(C)C)NC(=O)[C@H](CCC(N)=O)NC(=O)[C@@H](NC(=O)[C@H](CCC(=O)O)NC(=O)C(C)(C)NC(=O)[C@@H](NC(=O)C1(N)CCCC1)C(C)C)[C@@H](C)CC)C(=O)N[C@@H](Cc1c[nH]cn1)C(=O)N[C@@H](CCC(N)=O)C(=O)N[C@@H](CCCCNC(=O)[C@H](CCCNC(=N)N)NC(=O)CCCCCCCCCCCCCCCCC(=O)O)C(N)=O	PTH1R (Homo sapiens, UniProt Q03431)	cAMP, agonist, GloSensor	GP-2.3	20 min	8.32

Repeated from above:
SMILES	target	assay	test system	conditions	EC50 [nM]
CN(C)[C@H](CNC(=O)/C=C/c1cccc2ccccc12)Cc1ccc(O)cc1	Mu-type opioid receptor, with GoB (OPRM1, Homo sapiens, UniProt P35372)	receptor activation, agonist	–	–	7.3 ± 1.7
CCCCCC(=O)N[C@H]1CCSC1=O	sdiA	–	–	–	1.1
